{"data": "Experimental data collected from several papers", "UCHL1": "Ubiquitin carboxyl-terminal hydrolase isozyme L1 (UCHL1, Homo sapiens, UniProt P09936)", "note": "Numbers after ± are the reported error.", "chain of UniProt P09936 (whole entry, looked up)": "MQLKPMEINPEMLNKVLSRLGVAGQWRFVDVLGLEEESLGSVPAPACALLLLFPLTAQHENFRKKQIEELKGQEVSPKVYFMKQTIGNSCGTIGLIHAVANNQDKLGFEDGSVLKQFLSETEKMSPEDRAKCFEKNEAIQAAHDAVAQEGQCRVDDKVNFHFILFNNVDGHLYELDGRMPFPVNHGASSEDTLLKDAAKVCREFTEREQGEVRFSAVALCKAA"}
{"Compound": "COc1cc(-c2oc3cc(O)cc(O)c3c(=O)c2O[C@@H]2O[C@H](CO[C@@H]3O[C@@H](C)[C@H](O)[C@@H](O)[C@H]3O)[C@@H](O)[C@H](O)[C@H]2O)ccc1O", "tested on": "HIV-1", "assay": "viral infection", "system": "TZM-bl, BaL (CCR5-tropic)", "setting": "48 h", "quantity": "IC50", "value": "> 100000 nM"}
{"Compound": "COc1ccnc2[nH]cc(C(=O)C(=O)N3CCN(C(=O)c4ccccc4)C[C@H]3C)c12", "tested on": "HIV-1", "assay": "viral replication, inhibitor, pseudovirus neutralization", "system": "TZM-bl, 398-F1_F6_20", "setting": "48 h", "quantity": "IC50", "value": "2280 nM"}
{"Compound": "CC1(c2ccccc2)CC(C)(C)N(C(=O)c2cc([N+](=O)[O-])cc([N+](=O)[O-])c2)c2ccccc21 (centres unmarked)", "tested on": "Trypanosoma cruzi", "assay": "reporter translation, Renilla luciferase mRNA translation", "system": "cell-free extract", "setting": "40 µM", "how to read": "relative to: DMSO", "quantity": "inhibition", "value": "-10.4%"}
{"Compound": "OC[C@H]1O[C@@H](Oc2cc3c(O)cc(O)cc3[o+]c2-c2ccc(O)c(O)c2)[C@H](O[C@@H]2OC[C@@H](O)[C@H](O)[C@H]2O)[C@@H](O)[C@@H]1O", "tested on": "HIV-1", "assay": "viral infection", "system": "TZM-bl, BaL (CCR5-tropic)", "setting": "48 h", "quantity": "IC50", "value": "> 100000 nM"}
{"Compound": "CC(Cl)C(=O)N1CCC(N(CC(F)(F)F)S(C)(=O)=O)CC1 (centres unmarked)", "tested on": "UCHL1", "assay": "covalent, intact protein LC-MS", "setting": "12.5 µM", "quantity": "labelling", "value": "18.1%"}
{"Compound": "CC(C)CN(C[C@@H](O)[C@H](Cc1ccccc1)NC(=O)O[C@H]1CO[C@H]2OCC[C@H]21)S(=O)(=O)c1ccc(N)cc1", "tested on": "HIV-1", "assay": "viral replication", "system": "MT-4", "quantity": "IC50", "value": "4.2 ± 0.9 nM"}
{"Compound": "COc1cnc(-n2cnc(C)n2)c2[nH]cc(C(=O)C(=O)N3CCN(C(=O)c4ccccc4)CC3)c12", "tested on": "HIV-1", "assay": "viral replication, inhibitor, pseudovirus neutralization", "system": "TZM-bl, 3365.v2.c20", "setting": "48 h", "quantity": "IC50", "value": "1920 nM"}
{"Compound": "CC(=O)Nc1ccc(C=C(C#N)C(=O)NC2CCCCC2)cc1", "tested on": "UCHL1", "assay": "covalent, intact protein LC-MS", "setting": "12.5 µM", "quantity": "labelling", "value": "10.9%"}
{"Compound": "c1cc(CN2CCCNCCNCCCNCC2)ccc1CN1CCCNCCNCCCNCC1", "tested on": "HIV-1", "assay": "viral replication", "system": "MAGI, Ba-L", "quantity": "IC50", "value": "> 10000 nM"}
{"Compound": "COc1cc(-c2oc3cc(O)cc(O)c3c(=O)c2O[C@@H]2O[C@H](CO)[C@@H](O)[C@H](O)[C@H]2O)ccc1O", "tested on": "HIV-1", "assay": "viral infection", "system": "TZM-bl, BaL (CCR5-tropic)", "setting": "48 h", "quantity": "IC50", "value": "> 100000 nM"}
{"Compound": "FC(F)(F)c1cc(CO[C@H]2CCCN[C@H]2c2ccccc2)cc(C(F)(F)F)c1", "tested on": "HIV-1", "assay": "viral replication, measured: p24", "system": "PHA-stimulated PBMC, BaL (CCR5-tropic)", "setting": "7 days", "quantity": "IC50", "value": "5600 nM"}
{"Compound": "CCCC(C(=O)O)c1c(C)nc2ccc(Cl)cc2c1-c1ccccc1 (centres unmarked)", "tested on": "HIV-1", "assay": "viral replication, measured: Gag p24", "system": "MT-4, NL4-3", "quantity": "IC50", "value": "7000 nM"}
{"Compound": "Nc1ccn([C@H]2CC[C@@H](CO)O2)c(=O)n1", "tested on": "HIV-1", "assay": "viral replication, measured: p24", "system": "PHA-stimulated PBMC, BaL (CCR5-tropic)", "setting": "7 days", "quantity": "IC50", "value": "11 ± 4 nM"}
{"Compound": "CC(C)CN(C[C@@H](O)[C@H](Cc1ccccc1)NC(=O)O[C@H]1CCOC1)S(=O)(=O)c1ccc(N)cc1", "tested on": "HIV-1", "assay": "viral replication, MTT", "system": "MT-2, LAI", "quantity": "IC50", "value": "30 nM"}
{"note": "Excerpt of the above:"}
{"Compound": "CCCC(C(=O)O)c1c(C)nc2ccc(Cl)cc2c1-c1ccccc1 (centres unmarked)", "tested on": "HIV-1", "assay": "viral replication, measured: Gag p24", "system": "MT-4, NL4-3", "quantity": "IC50", "value": "7000 nM"}
